Assay results pooled from the literature.
Numbered parts are unrelated; each lists some results of a single study.

Set 1
Species: mouse
Sample: microsomes or S9
Concentration: 2 µM
Time: 0.5 h
Structure (SMILES)	remaining compound
COCCN(Cc1ccc(C)c(Br)c1)C(=O)Cn1cnc(S(=O)(=O)N2CCCC2)c1	77.8%
Cc1ccccc1Nc1nc(N)nc(-c2oc3ccccc3c2C)n1	2.93%
c1cnc2c(c1)OC(Cn1nnc3ncc(-c4ccc(OCC5CCNCC5)cc4)nc31)CN2 (centres unmarked)	86.6%
COC(=O)c1c(C)n(C(C)=O)c2ccc(NS(=O)(=O)c3cccs3)cc12	61.2%
Nc1ccc2nc(CCCc3nc4ccc(N)cc4s3)sc2c1	53.7%
COC(=O)c1ccc(C(=O)Nc2cc(F)ccc2NC(C)C)[nH]1	7.58%
Cc1cc2n(CCNC(=O)COc3ccc(F)cc3)ccn2n1	47.7%
Nc1nc(N2CCc3ccccc3C2)nc2ccccc12	0.092%

Set 2
Target: Beta-1 adrenergic receptor (ADRB1, Homo sapiens, UniProt P08588)
Sequence of UniProt P08588 (whole entry, looked up): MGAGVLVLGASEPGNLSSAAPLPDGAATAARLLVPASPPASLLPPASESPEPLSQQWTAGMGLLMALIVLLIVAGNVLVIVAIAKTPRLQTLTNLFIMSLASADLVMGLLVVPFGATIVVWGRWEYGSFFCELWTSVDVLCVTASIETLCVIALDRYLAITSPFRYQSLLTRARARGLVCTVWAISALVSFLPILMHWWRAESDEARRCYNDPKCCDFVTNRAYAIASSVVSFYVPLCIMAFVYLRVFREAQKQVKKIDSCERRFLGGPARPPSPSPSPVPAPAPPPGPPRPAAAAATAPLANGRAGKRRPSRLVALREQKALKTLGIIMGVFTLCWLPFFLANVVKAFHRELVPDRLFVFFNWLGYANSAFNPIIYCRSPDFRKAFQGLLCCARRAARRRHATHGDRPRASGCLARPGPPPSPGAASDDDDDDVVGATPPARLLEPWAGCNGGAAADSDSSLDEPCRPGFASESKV
Action: antagonist
Structure (SMILES)	IC50 [µM]
CN(C)c1cccc(-c2cc(N3CCOCC3=O)c3cncn3c2)c1	≥ 100
COc1ccccc1OCC(O)CN1CCN(CC(=O)Nc2c(C)cccc2C)CC1 (centres unmarked)	≥ 100
O=C(c1cc(O)nc2ccccc12)N1CCC(Cn2nc(-c3ccccc3)ccc2=O)CC1	≥ 100
CC(C)CN1C(=O)COC[C@@H]1[C@H](O)c1ccc(NC(=O)Cc2ccccc2)cc1	≥ 100
c1ccc2c(Oc3nc(Nc4ccc(N5CCOCC5)cc4)c4ncn(C5CCCCC5)c4n3)cccc2c1	≥ 100
Cc1noc2c(NC3CCOCC3)cc(-c3ccsc3)nc12	≥ 100
CCC(CC)C(=O)NC[C@H]1O[C@@H](CC(=O)N2CCN(c3ccccc3OC)CC2)[C@H](O)[C@@H]1O	≥ 100
O=c1ccn(Cc2cnn(-c3ccccc3)n2)c2ccccc12	≥ 100
Cc1csc(-c2nnc(Nc3ccc(Oc4ncccc4-c4ccnc(N)n4)cc3)c3ccccc23)c1	≥ 100

Set 3
Target: Histamine H2 receptor (HRH2, Homo sapiens, UniProt P25021)
Sequence of UniProt P25021 (whole entry, looked up): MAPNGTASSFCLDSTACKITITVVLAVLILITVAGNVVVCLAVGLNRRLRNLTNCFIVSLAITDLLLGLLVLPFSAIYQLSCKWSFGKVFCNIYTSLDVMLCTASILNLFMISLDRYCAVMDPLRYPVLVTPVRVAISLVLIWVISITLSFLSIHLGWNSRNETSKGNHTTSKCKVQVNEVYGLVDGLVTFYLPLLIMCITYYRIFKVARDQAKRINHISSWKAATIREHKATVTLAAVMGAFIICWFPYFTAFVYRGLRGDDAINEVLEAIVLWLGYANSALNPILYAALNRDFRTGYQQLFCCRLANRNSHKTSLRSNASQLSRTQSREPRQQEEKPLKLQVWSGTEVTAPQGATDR
Effect on: binding
Method: radioligand binding
Concentration: 10 µM
SMILES	inhibition [%]
CC1=C(C#N)C(c2ccc3c(c2)c(NC(=O)c2ccccc2C)nn3C)C(C#N)=C(C)N1	8.7
CC(C)CC(=O)N1CCc2nc(-c3ccc(Br)cc3)nc(N(C)Cc3ccccc3)c2C1	3.39
CC(=O)Nc1c(F)cc(C(=O)N[C@H]2CC[C@H](O)CC2)cc1O[C@@H](C)c1ccccc1	-7.57
O[C@]1(C(F)(F)F)CCCC[C@H]1Nc1ccc(F)cc1	-1.07
Cc1nc(C2CCN(C(=O)c3ccc(OC(F)(F)F)cc3N)CC2)c2ncc(N3CCN(C)CC3)cc2n1	23.6
CNC(=O)Nc1ccc2c(c1)[C@]1(CC2)OC(=O)N(CC(=O)N(Cc2ccc(F)cc2)[C@@H](C)C(F)(F)F)C1=O	6.93
O=C(Nc1cnc(Oc2ccc(F)cc2)nc1)N1CCc2ncccc2[C@@H]1c1ccc(F)cc1	2.75

Set 4
Target: Protein kinase C zeta type (PRKCZ, Homo sapiens, UniProt Q05513)
Sequence of UniProt Q05513 (whole entry, looked up): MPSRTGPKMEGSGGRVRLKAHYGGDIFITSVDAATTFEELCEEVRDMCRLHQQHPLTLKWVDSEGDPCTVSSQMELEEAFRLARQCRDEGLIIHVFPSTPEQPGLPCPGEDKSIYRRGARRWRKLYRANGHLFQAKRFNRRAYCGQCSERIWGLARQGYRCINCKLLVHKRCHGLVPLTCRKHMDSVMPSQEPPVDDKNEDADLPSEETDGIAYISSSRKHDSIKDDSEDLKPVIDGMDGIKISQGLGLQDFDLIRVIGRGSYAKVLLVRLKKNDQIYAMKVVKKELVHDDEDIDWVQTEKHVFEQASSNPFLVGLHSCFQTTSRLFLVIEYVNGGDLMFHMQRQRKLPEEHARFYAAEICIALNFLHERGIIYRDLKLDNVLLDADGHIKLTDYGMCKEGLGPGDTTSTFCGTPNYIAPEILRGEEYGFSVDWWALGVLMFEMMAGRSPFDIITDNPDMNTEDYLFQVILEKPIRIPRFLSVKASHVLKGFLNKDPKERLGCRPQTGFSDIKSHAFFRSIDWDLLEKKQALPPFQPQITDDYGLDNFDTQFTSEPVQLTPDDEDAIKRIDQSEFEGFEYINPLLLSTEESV
Effect on: enzyme activity
Action: inhibitor
Concentration: 0.5 µM
Baseline: control
SMILES	remaining activity
O=S(=O)(c1cccc2cnccc12)N1CCCNCC1	94.7%
O=C(CCCc1ccc(-c2ccccc2F)cc1)Nc1ccc(O)cc1	116%
O=C(O)c1ccc2c3c1cccc3c(=O)n1c3ccccc3nc21	94.3%
O=C1NC(=O)C(c2cn(CCCn3ccnc3)c3ccccc23)=C1Nc1ccccc1	99.6%
C#Cc1cccc(Nc2ncnc3cc(OCCOC)c(OCCOC)cc23)c1	92.3%
COc1cc2nccc(Oc3ccc(NC(=S)NC(=O)c4ccccc4C)cc3)c2cc1OC	96.9%
Oc1ccc(-c2nc(-c3ccncc3)c(-c3ccc(F)cc3)[nH]2)cc1	109%
O=C(Nc1cccc(Nc2cc(Nc3cccc(C(F)(F)F)c3)ncn2)c1)C1CC1	104%
Cc1nc(-c2ccccc2)c(-c2ccncc2)o1	103%
Cn1sc(=O)n(Cc2ccccc2)c1=O	101%
COc1ccc(CNC(=O)Nc2ncc([N+](=O)[O-])s2)cc1	96.3%
Cc1cccc(-c2[nH]c(C(C)(C)C)nc2-c2ccc3c(c2)OCO3)n1	87.9%
O=C1NC(=O)C(c2cn(CCCO)c3ncccc23)=C1c1cnccn1	88.5%
Nc1[nH]nc2nc3ccccc3nc12	106%
OCC(O)CCON=C1C(c2c(O)[nH]c3ccccc23)=Nc2ccccc21 (centres unmarked)	98.5%
CNC(=O)c1cc(Oc2ccc(NC(=O)Nc3ccc(Cl)c(C(F)(F)F)c3)cc2)ccn1	94.5%
COc1ccc(C(=O)Nc2sc3c(c2C(N)=O)CCCC3)cc1OC	89.3%
O=c1c2ccccc2[nH]c(=S)n1CCN1CCC(=C(c2ccc(F)cc2)c2ccc(F)cc2)CC1	102%
COc1cc2ncnc(Nc3ccc(Oc4ccccc4)cc3)c2cc1OC	100%
Cc1ccc(NC(=O)c2ccc(CN3CCN(C)CC3)cc2)cc1Nc1nc(-c2cccnc2)cs1	103%

Some of these lines once more (set 2):
Structure (SMILES)	IC50 [µM]
CC(C)CN1C(=O)COC[C@@H]1[C@H](O)c1ccc(NC(=O)Cc2ccccc2)cc1	≥ 100
c1ccc2c(Oc3nc(Nc4ccc(N5CCOCC5)cc4)c4ncn(C5CCCCC5)c4n3)cccc2c1	≥ 100
CN(C)c1cccc(-c2cc(N3CCOCC3=O)c3cncn3c2)c1	≥ 100
Cc1noc2c(NC3CCOCC3)cc(-c3ccsc3)nc12	≥ 100
CCC(CC)C(=O)NC[C@H]1O[C@@H](CC(=O)N2CCN(c3ccccc3OC)CC2)[C@H](O)[C@@H]1O	≥ 100
